Results pooled from the literature.
Protocols differ between the studies behind these lines. ± marks the error that the study gave.

With `OB(O)c1sccc1/C=N/OCc1ccccc1` the IC50 was greater than 100000 nM (human pancreatic trypsin; enzyme activity, inhibitor).
`Fc1ccc(Nc2nc(NC3CCCCC3)c3ccccc3n2)cc1F` has a pIC50 of 5.8 (β2AR/β1AR ECL3 chimera; β-arrestin2 recruitment, antagonist, BRET; with: isoprenaline 1 µM).
`C=CC(=O)N1[C@H](c2ccc3c(c2)OCO3)c2[nH]c3ccccc3c2C[C@@H]1C(=O)N1CCN(C)CC1` has a relative co-enrichment of 112% (human cyclin E1 N112C-3xFLAG:CDK2; co-IP with TMT proteomics, measured: NCL; concentration not given, P19338; baseline: wild type DMSO).
`O=C(Nc1cccc(C(=O)N2CCC(c3nc(-c4ccccc4)n[nH]3)CC2)c1)c1ccccc1` has an IC50 of 912 ± 130 nM (FSP1, ancestral; resazurin reduction, inhibitor; pH 7.2, with: NADH, resazurin).
`Nc1ncc(-c2cc(-c3cnn(CC(F)(F)F)c3)ncc2F)nc1C(=O)NC1CNCC(F)C1` (centres unmarked) gave a remaining binding of 83% (YES; KINOMEscan competition binding; 1 µM; baseline: DMSO control).
For `c1ccc(-c2n[nH]cc2-c2ccnc3ccccc23)nc1`, “log2 fold change” read -0.12 (CAK1 (Candida albicans); kinase binding, MIB/MS competition; Candida albicans lysate; 10 µM; baseline: DMSO).
`Fc1ccc(Nc2nc(NC3CCCCC3)c3cc(C(F)(F)F)ccc3n2)cc1F` gave a pIC50 of 6.2 (β2AR/β1AR ECL3 chimera; β-arrestin2 recruitment, antagonist, BRET; with: isoprenaline 1 µM).
`C=CC(=O)Nc1cccc(Cn2ncc3cnc(Nc4cnn(CCOC)c4)nc32)c1`: “percent of control” 100% (PAK4 human; binding, KINOMEscan; 100 nM; lower = stronger binding).
`Cn1ccc2cc(-n3c(=O)[nH]c4sc5c(c4c3=O)CCCC5)ccc21` gave an inhibition of 0% (rat thyroid hormone receptor; radioligand binding; 10 µM).
With `CN(C)CCOc1cc(NC(=O)c2cccc(C(=O)Nc3cc(OCCN(C)C)c4ccccc4n3)n2)nc2ccccc12` the ΔTm was 30 ± 0.6 K (human telomeric G-quadruplex DNA; FRET melting; 1 µM, pH 7.4, with: 60 mM potassium).
`C[n+]1cc(NC(=O)c2ccc3ccc4ccc(C(=O)Nc5cc6ccccc6[n+](C)c5)nc4c3n2)cc2ccccc21` gave a delta Tm of 4 °C (telomeric antiparallel G-quadruplex DNA; UV melting; 3 µM, 10 mM potassium, with: DNA 3 µM).
